Experimental data pooled from the literature.
Every numbered part comes from another study and shows a few of its results, in no order. Positions count from the first letter of the parent shown.

Set 1
Target: CCNA1, cyclin fold, Cln2 fusion (human)
Technique: yeast growth competition, sequencing
Matrix: yeast
Notes: weak parent motif
Reference: not given
Reading: higher = stronger binding
Parent: PKN2 docking peptide (human); VSAVQKLDFSDTM; partner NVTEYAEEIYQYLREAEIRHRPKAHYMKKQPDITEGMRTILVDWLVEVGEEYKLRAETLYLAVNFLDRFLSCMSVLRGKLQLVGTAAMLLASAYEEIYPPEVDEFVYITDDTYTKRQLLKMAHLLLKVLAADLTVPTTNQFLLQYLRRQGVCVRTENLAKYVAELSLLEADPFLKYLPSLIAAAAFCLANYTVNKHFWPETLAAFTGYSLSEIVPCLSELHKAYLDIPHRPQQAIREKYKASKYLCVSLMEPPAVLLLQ
Change	normalised enrichment score
VSDVQKLDFSDTM [A3D]	-0.0455
VSARQKLDFSDTM [V4R]	0.486
VSAVQFLDFSDTM [K6F]	0.163
VSAIQKLDFSDTM [V4I]	0.193
VSAGQKLDFSDTM [V4G]	-0.374
VSAVQKLLFSDTM [D8L]	0.34
VSAVQKLDFSDTA [M13A]	0.172
VSAVQKNDFSDTM [L7N]	-0.0244
VSAVQKLDFSLTM [D11L]	0.25
VSAVQKLDASDTM [F9A]	0.262
VSAVQELDFSDTM [K6E]	0.0558
VSPVQKLDFSDTM [A3P]	0.245
VQAVQKLDFSDTM [S2Q]	0.407
VSAVQKLDFIDTM [S10I]	0.225
VSAVQKFDFSDTM [L7F]	0.539
VSAVQKLDFSRTM [D11R]	0.294
VDAVQKLDFSDTM [S2D]	-0.131
VSAVQKLDFGDTM [S10G]	0.39
VSAVQKLDFSDHM [T12H]	0.221
VSAVQKLDTSDTM [F9T]	0.138
VSAVQKLDFSDSM [T12S]	0.371
VSFVQKLDFSDTM [A3F]	0.0883
VSAVQKLDWSDTM [F9W]	0.13
VSAVQKLDFSDTS [M13S]	0.376
VSAVQKLKFSDTM [D8K]	0.345

Set 2
Target: Prothrombin, mature alpha-thrombin (F2, Homo sapiens, UniProt P00734)
Technique: aptamer microarray, sandwich
Molecule type: DNA with 2'F-ANA
Matrix: in vitro
Tested at: 200 nM
Notes: whole 15-mer aptamer, many near background
Together with: Cy3 exosite-II aptamer, 400 nM
Reading: higher = stronger binding
Oligonucleotide: GGTTGGTGTGGTTGG
Modification	mean fluorescence intensity
2'F-ANA at 2 3 5 6 7 8 9 11 12 13 15	119 a.u.
2'F-ANA at 2 3 4 5 8 9 11 14 15	49.9 a.u.
2'F-ANA at 3 4 5 7 8 9 14	80.7 a.u.
2'F-ANA at 3 4 5 6 9 10 11 13 15	48.1 a.u.
2'F-ANA at 1 6 8 9 11 13 15	130 a.u.
2'F-ANA at 1 5 6 8 9 12 14 15	49.7 a.u.
2'F-ANA at 2 3 8 9 11 12 13	910 a.u.
2'F-ANA at 3 5 6 7 8 10 11 12 14	50.6 a.u.
2'F-ANA at 1 3 5 6 7 8 9 10	64.4 a.u.
2'F-ANA at 2 3 4 5 10 11 12 14	51.4 a.u.
2'F-ANA at 3 9 11 12	1410 a.u.
2'F-ANA at 2 3 4 5 8 9 10 12 13 14	49.8 a.u.
2'F-ANA at 2 6 8 12 15	729 a.u.
2'F-ANA at 3 5 6 7 10 15	50.1 a.u.
2'F-ANA at 4 5 9 11 13 14 15	43.9 a.u.
2'F-ANA at 2 9 10 11 12 14 15	86.2 a.u.
2'F-ANA at 2 4 7 8 9 11 12 13 14 15	121 a.u.
2'F-ANA at 1 2 3 5 6 7 9 11 12 14	47 a.u.
2'F-ANA at 1 3 4 6 7 8 9 10 12 14 15	57.5 a.u.
2'F-ANA at 4 6 9 13 14	69.4 a.u.
2'F-ANA at 7 8 9 13 14	191 a.u.
2'F-ANA at 2 4 5 6 8 9 10 11	54 a.u.
2'F-ANA at 3 5 7 8 9 12 13 14	63.9 a.u.
2'F-ANA at 1 2 3 4 5 7 8 9 12 13 15	77.1 a.u.
2'F-ANA at 5 8 9 10 13	42.2 a.u.

Set 3
Target: ABI1, truncated, D143A, DHFR fusion (Arabidopsis thaliana)
Technique: DHFR PCA, deep sequencing
Matrix: yeast
Notes: methotrexate growth selection, single substitutions
Together with: (+)-ABA 2500 µM
Reference: wild-type fitted maximum
Reading: higher = stronger binding
Parent: PYL1, truncated, DHFR fusion (Arabidopsis thaliana); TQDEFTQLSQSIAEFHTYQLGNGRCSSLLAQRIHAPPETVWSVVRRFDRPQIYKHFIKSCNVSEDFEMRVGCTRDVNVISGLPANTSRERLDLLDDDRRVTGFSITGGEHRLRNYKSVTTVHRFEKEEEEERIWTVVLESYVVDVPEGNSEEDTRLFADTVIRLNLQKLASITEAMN
Change	relative binding score
G23H	95.1%
P83S	89%
F47W	89%
E128S	103%
T86Q	89.1%
Q10E	113%
Q167E	97.2%
F66M	96.4%
S26P	53.2%
I57R	-3.32%
L94M	104%
V145M	95.4%
T160V	91.4%
G148T	91.2%
E130D	100%
C60I	96%

Set 4
Target: RING finger protein unkempt homolog, zinc fingers 1-6, GST-SBP tag (UNK, Homo sapiens, UniProt Q9C0B0, residues 30-357)
Technique: RNA Bind-n-Seq
Molecule type: RNA
Matrix: in vitro
Tested at: not given
Notes: RNA with constant flanks, human and mouse sites, ends assumed
Reference: input RNA pool
Reading: higher = stronger binding
All sequences stand within: GGGAGUUCUACAGUCCGACGAUC … CAACAGAGGAUUGAGCAUCA
Target sequence (chain): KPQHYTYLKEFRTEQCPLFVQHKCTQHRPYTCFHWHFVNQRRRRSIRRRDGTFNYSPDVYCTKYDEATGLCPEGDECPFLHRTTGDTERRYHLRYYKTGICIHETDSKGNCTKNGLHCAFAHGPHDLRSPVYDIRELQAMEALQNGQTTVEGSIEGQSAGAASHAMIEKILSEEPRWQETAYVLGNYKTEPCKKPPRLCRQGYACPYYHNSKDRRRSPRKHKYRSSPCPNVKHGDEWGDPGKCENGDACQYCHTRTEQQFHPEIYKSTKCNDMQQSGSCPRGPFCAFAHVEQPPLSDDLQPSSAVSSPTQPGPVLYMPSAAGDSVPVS
Oligonucleotide	bound/input enrichment
ACUAGUUAUUUAACAUUAUGCAAUGAAUAUGGGCAAGAAAAGAUUGAACCAGGGUCUUUGAAUGAGGAGCCCUUCAUGAAGACUGAAGGGAAUGGUGUUGAUACAAAAGCUAUUAAAAGC	6.14 ratio
UGUGGCUGCUUUCUUUGGUGCCCUCCCCUCACCCCACUGUAGCUGUGACGUGUUGUAGUUUUUAGAUGUUUGUAAAAUGUUUAAAAAAAUGUUAAAAGGAAAAAAGUGAAAAUAACAAAA	0.944 ratio
UUGUGCUGAUUUUUGGUGAUCAAGCCUCAGUCCCCUUCAUAUUACCCUCUCCUUUUUAAAAAUUACGUGUGCACAGAGAGGUCACCUUUUUCAGGACAUUGCAUUUUCAGGCUUGUGGUG	0.793 ratio
AAAGCCCUUAAAGCCAAGAAGGAAGAUGGGAAUAAAGCCUUUAAGGAAGGAAAUUACAAGCUAGCAUAUGAACUGUACACAGAAGCCUUGGGGAUAGAUCCCAACAACAUAAAAACAAAU	0.301 ratio
CGGCCUGGGAGGCGCGCAGCCGGCGGCCAGAGCGGCUUGUGGGAAGCGGACUUUCACGCAGGCAACGGCGGUGGCUCGUUACUGACUGGAAGCCGAUCAGGAGAACAAGCUCUGGUGUCC	0.082 ratio
AGAGCGGUGUCGGCCGCUGAGGAGGUGCGAUCCCCUGUCGGGUUCCCGCUGCUCCGGACCAUGUACUCGGCCCACAGGCCCCUGAUACCCGCGUCUGGCGCGGCCUCUCGUGGCCUCGGC	0.0707 ratio
AGGCGUGUGCCUCUAGCUGAUAAACCUCAUGAGAAAACCAUGUGCUGUCAGCACCAGGUGCAUGCCAUUGAGUUUGUUUGCUUGGAAGAAGGUUGUCAAACUAGUCCACUCAUGUGCUGU	0.11 ratio
CGCAGAACGGAUGAAGCUCUUACACCAAGUGUCACGAGUCUGGAGAACAGAUGGGUUGAGUAGUUGUUCUUAUAAAUUAGUAUCUGUGGAACACAAUCCUUUAUAUAUCAACAUCACAGU	5.25 ratio
UGUGUGUGUGUGUGUGUGUGUGUGUGUGUGUGUGUGUGAGAGAGAGAGAGAGAGAGAUUUGUUUGUAGCCCGUGAAGGCUCCAGCAUGCUGGUCUGACUACAAAGGCCACCUCCCUUACA	0.906 ratio
CAUGUGACAAAAUUUUUUAACUAUAAGGUUGUACUGCUGGGAAAAUACAAUGCACAGGGCUUAGGUUCAGAUCAUGAAUUAAUGCUGAGAUGUACCAAAGGACGAGAAUACAUCAAAGUC	0.228 ratio
UUACAAAGGACAAUCUUGGGUGGAAUUGCGUUUGUUGCCAUAAAAGGAGCAUUUAAAGUUUACUUCAAACAGCAGCAAUAUUUACGACAGGCACACCGCAAAAUUCUGAAUUAUCCAGAA	0.166 ratio

Set 5
Target: Histone acetyltransferase KAT6A, winged helix 1, GST fusion (KAT6A, Homo sapiens, UniProt Q92794, residues 1-85)
Technique: protein binding microarray
Molecule type: double-stranded DNA, one strand shown
Matrix: in vitro
Tested at: not given
Notes: 8-mer, flanks averaged, mean of 2 arrays, mostly near background
Reference: not given
Reading: higher = stronger binding
Target sequence (chain): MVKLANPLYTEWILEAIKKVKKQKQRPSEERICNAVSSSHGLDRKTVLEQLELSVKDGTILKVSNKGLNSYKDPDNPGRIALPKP
Oligonucleotide	E-score
AAGCAAAG	-0.0637
AACACACG	0.0601
AACGCGGC	0.378
AGAAGAAA	-0.186
AAAGCTGG	-0.131
TCGTAGCA	-0.188
CCAGATCG	-0.0244
TACTTCGA	0.0519
TCTTGAAA	-0.181
AATTGTGA	-0.174
AAAGTACC	0.00371
ATTCAGGC	-0.0917
CATCACGA	-0.214
CTGTCGTC	-0.161
ACCATTCG	-0.047
AATAATTG	-0.105
AACCTCTA	0.0336
GTTTAATA	-0.00526
CTGCAAGC	-0.0118
CTTCGCAA	-0.141
TCTTCAAA	-0.186
GACGTAGC	0.104
ACTTAATC	-0.139
TTATACAA	-0.113
CAACACTG	-0.138

Set 6
Target: Sal-like protein 4, full length isoform A (SALL4, Homo sapiens, UniProt Q9UJQ4, residues 1-1053)
UniProt Q9UJQ4, sequence (whole entry, looked up): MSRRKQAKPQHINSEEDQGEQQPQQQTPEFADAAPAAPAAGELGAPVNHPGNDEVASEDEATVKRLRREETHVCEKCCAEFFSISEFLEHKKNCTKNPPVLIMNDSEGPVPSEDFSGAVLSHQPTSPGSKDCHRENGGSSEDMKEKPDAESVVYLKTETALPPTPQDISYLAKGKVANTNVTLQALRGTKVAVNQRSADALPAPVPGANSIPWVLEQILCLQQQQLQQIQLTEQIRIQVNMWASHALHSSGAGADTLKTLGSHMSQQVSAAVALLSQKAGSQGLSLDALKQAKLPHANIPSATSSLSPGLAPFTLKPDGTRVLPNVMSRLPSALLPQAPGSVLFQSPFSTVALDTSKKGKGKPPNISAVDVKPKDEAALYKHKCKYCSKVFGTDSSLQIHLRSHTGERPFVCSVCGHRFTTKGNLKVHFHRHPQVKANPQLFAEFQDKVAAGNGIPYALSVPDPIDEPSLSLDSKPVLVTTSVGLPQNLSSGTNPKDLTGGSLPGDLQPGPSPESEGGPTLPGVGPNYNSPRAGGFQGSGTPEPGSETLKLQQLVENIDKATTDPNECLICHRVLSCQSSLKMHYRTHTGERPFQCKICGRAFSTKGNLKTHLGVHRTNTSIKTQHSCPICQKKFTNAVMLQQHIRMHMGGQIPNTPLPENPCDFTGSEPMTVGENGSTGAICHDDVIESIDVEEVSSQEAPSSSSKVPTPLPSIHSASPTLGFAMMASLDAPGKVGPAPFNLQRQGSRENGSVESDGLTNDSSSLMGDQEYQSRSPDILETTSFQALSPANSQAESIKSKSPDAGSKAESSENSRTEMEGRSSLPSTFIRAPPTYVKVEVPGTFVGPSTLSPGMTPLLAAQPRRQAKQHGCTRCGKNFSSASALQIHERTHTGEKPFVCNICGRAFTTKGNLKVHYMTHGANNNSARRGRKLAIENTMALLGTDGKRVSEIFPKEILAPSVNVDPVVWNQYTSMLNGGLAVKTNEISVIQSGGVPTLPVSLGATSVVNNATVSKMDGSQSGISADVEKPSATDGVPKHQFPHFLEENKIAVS
Technique: universal PBM
Molecule type: double-stranded DNA, one strand shown
Matrix: in vitro
Tested at: 600 nM
Notes: 8-mer, flanks averaged, mean of replicates
Reading: higher = stronger binding
Oligonucleotide	E-score
AAAAAAAC	0.227
ACGGATCC	-0.307
CCGACACG	-0.295
CAATTGTA	0.101
GTAATTGA	0.169
CACCACTG	-0.108
ACGTCATC	-0.15
CGCCCCAA	-0.203
AGTCTCAC	0.0161
CAGAAAAC	0.00859
CATTACTA	0.312
CCACTGGA	-0.285
ACCTATCC	-0.0308
AATCAAAA	0.286
CCGATAAC	0.0608
TAGCGAGA	-0.00467
ACTTGAGA	0.144

For quick reference, copied from above (set 1):
Change	normalised enrichment score
VSAVQKLDFSDTA [M13A]	0.172
VSAVQKNDFSDTM [L7N]	-0.0244
VSAVQKLDFSLTM [D11L]	0.25
VSAVQKLDASDTM [F9A]	0.262
VSAVQELDFSDTM [K6E]	0.0558
VSPVQKLDFSDTM [A3P]	0.245
VQAVQKLDFSDTM [S2Q]	0.407
VSAVQKLDFIDTM [S10I]	0.225
